Measurements from different studies.
Lines come from different studies, so protocols differ.
Medium: Caco-2

NC(=O)c1c(F)ccc(OCc2nc3cc(Cl)cnc3s2)c1F
Papp B→A: 31.4 ×10⁻⁶ cm/s

CO[C@@H](C[C@H]1C(C)=CC[C@@H]2[C@]3(C)C[C@H](O[C@@H]4O[C@@H](C)[C@H](O)[C@@H](O)[C@H]4O)[C@@H](O)C(C)(C)[C@H]3CC[C@]21C)[C@H](N)C(=O)O
Papp A→B (5 µM, 1 h): 0.06 ×10⁻⁶ cm/s

O=C(C1CCN(c2nnnn2-c2ccccc2)CC1)N1CCCc2ccccc21
Papp B→A (5 µM, 2 h): 26 ×10⁻⁶ cm/s

CC1(C)CCN(Cc2ccc(C(=O)NC[C@]3(O)CCCN(c4cc(NCc5ccccc5)ncn4)C3)c(O)c2)CC1
Papp (10 µM, 90 min): 25.6 ×10⁻⁶ cm/s

COc1ccc2c(c1OCc1ccccc1)C[C@@H](C(=O)O)N(c1nc3ccc(C#N)cc3o1)C2
Papp A→B (10 µM, 90 min, pH 7.4): 11.3 ×10⁻⁶ cm/s

O=C(O)c1ccc(O)c(CO)c1
Papp A→B (10 mM, 2 h): 0.1 ×10⁻⁶ cm/s

Cc1nc(N[C@@H](C)c2ccc(-c3nc(C4CC4)no3)cc2)c2cc(C)oc2n1
Papp: 11.7 ×10⁻⁶ cm/s

Cc1cc(O)cc(O)c1C(=O)c1c2c3c(c(O)cc(C)c3oc1=O)C(=O)c1c(O)cc(O)cc1-2
Papp B→A (200 µM, 3 h, pH 7.4): 0.031 ×10⁻⁶ cm/s

CCOC(=O)c1cc2cc(-c3cc(C(=O)NCc4ccc(C(=O)O)cc4)nn3C)ccc2[nH]1
Papp B→A (50 mM, 2.5 h, pH 7.4): 15 ×10⁻⁶ cm/s

CCCCC[C@@H]1OC(=O)[C@@H](C)NC(=O)[C@H](CCCCC)OC(=O)[C@@H](C)NC(=O)[C@H](CCCCC)OC(=O)[C@@H](C)NC(=O)[C@H](CCCCC)OC(=O)[C@@H](C)NC1=O
Papp A→B (10 µM): 0.186 ×10⁻⁶ cm/s

COC(=O)c1ccc2c(c1)NC(=O)/C2=C(\Nc1ccc2c(c1)CCN2C(=O)CN1CCOCC1)c1ccccc1
Papp B→A (20 µM, 2 h): 0.05 ×10⁻⁶ cm/s

CCC/C(=C\C1=C(OC)C(=O)c2ccccc2C1=O)C(=O)NOC
Papp A→B: 41.7 ×10⁻⁶ cm/s

O=C(Nc1nc2cc(C(F)(F)F)cc(NC3CC3)n2n1)c1cccnc1
Papp (10 µM, 2 h): 51 ×10⁻⁶ cm/s

Some of these lines once more:
Cc1nc(N[C@@H](C)c2ccc(-c3nc(C4CC4)no3)cc2)c2cc(C)oc2n1
Papp: 11.7 ×10⁻⁶ cm/s

Cc1cc(O)cc(O)c1C(=O)c1c2c3c(c(O)cc(C)c3oc1=O)C(=O)c1c(O)cc(O)cc1-2
Papp B→A (200 µM, 3 h, pH 7.4): 0.031 ×10⁻⁶ cm/s
